# Measured values collected from several papers.
# Each line is one published result; not all experiments were run side by side. Several values in a cell are separate wells, animals, samples, runs or records. ± gives the spread as reported.
Structure (SMILES),target or system,test,test system,setting,how to read,endpoint,value
O=C(Nc1nnc2n3c(nc(-c4ccc(Cl)cc4)c1-2)SCC3=O)c1ccccc1,OVCAR-4,SRB,,"10 µM, NCI60 single-dose screen",reference: untreated,cell growth,99.7%
CC1(C)CCC(CN2CCN(c3ccc(C(=O)NS(=O)(=O)c4ccc(NCC5CCOCC5)c([N+](=O)[O-])c4)c(Oc4cnc5[nH]ccc5c4)c3)CC2)=C(c2ccc(Cl)cc2)C1,THP-1,"annexin V/PI flow cytometry, refers to: annexin V+/PI-",,"0.2 µM, 24 h",,early apoptotic cells,3.4%
Cn1cc(-c2ccc(-c3cncc(Cl)c3N3CCC4(CCNC4=O)CC3)cc2)cn1,COLO 205,"gene expression, microarray, refers to: AOC3 mRNA",,"concentration not given, 2 h",reference: untreated cells,log2 fold change,2.19
CC(C)(C)C(=O)Oc1ccc(S(=O)(=O)Nc2ccccc2C(=O)NCC(=O)O)cc1,human peripheral blood neutrophils,NET formation,,"500 µM, with: MPO-ANCA immune complex, TNF-α",,citrullinated histone H3 per neutrophil,16.4 and 18.3 and 22.3 and 20.8 and 19 and 13.9
O=C1N(Cc2cccc3ccccc23)c2ccccc2C12NN=C(c1ccccc1)S2 (stereo not shown),SK-N-BE(2) and SK-N-SH neuroblastoma,MTT,,"10 µM, 24 h",,viability loss,50 to 60%
COc1ccc(NC(=O)c2c(Nc3ccccc3)sc(C#N)c2NC(=O)CNc2ccc(Cl)cc2)cc1,HepG2,ELISA,,"IC50, 24 h",,Bax level,121 ± 13.6 pg/mL
CCn1cc(-c2cc(Cn3ccoc3=N)cc3c2CCN([C@@H](C)c2cc(OC)ccn2)C3=O)c(C(F)(F)F)n1,SK-LU-1,"cell growth, inhibitor",,120 h,,EC50,> 30 µM
CCCCCCCCCC(=O)Oc1c(C)c(O)c(C(=O)/C=C/c2ccccc2)c(OC)c1C,FaDu,SRB,,,reference: normal over FaDu IC50,selectivity index,1.21
C=Cc1c2[n-]c(c1C)/C=c1\[n-]/c(c(C)c1C=C)=C\c1[n-]c(c(CCC(=O)O)c1C)/C=c1\[n-]c(c(C)c1CCC(=O)O)=C2.[Sn+4],SH-SY5Y,"RNA-seq, refers to: FHL2 mRNA",,"5 µM, 5 h",reference: untreated cells,fold change,1.95
CCn1cc(-c2cc(Cn3ccnc3)cc3c2CCN([C@H](c2cc(OC)ccn2)C2CC2)C3=O)c(C(F)(F)F)n1,HuCCT-1,"cell growth, inhibitor",,120 h,,EC50,> 30 µM
COC(=O)C1=C(C)NC(C)=C(C(=O)OC(C)(C)CN(C)CCC(c2ccccc2)c2ccccc2)C1c1cccc([N+](=O)[O-])c1 (stereo not shown),Toxoplasma gondii,parasite growth,"HFF, bradyzoite, alkaline-induced",,,EC50,7.8 µM
Cl.Cl.NCCNS(=O)(=O)c1ccc(Cl)c2ccncc12,SK-OV-3,ATP,2D monolayer culture,"1 µM, 4 days",reference: untreated,relative cell number,118%
Nc1ncnc2c1ncn2[C@@H]1O[C@H](CO)[C@@H](O)[C@H]1O,activated human T cells,,,316 nM,higher = more proliferation,T cell proliferation,70.2 a.u. and 66.4 a.u. and 64.3 a.u.
COc1cc(N2CCC(N3CCN(C)CC3)CC2)ccc1Nc1ncc(Cl)c(Nc2ccccc2P(C)(C)=O)n1,Ba/F3 EML4-ALK v1,cell viability,,,,Emax,100%
O=C(/C=C/c1ccc(O)c(O)c1)OCCc1ccccc1,Toxoplasma gondii,"parasite growth, luciferase reporter","HFF, tachyzoite",72 h,,EC50,24.5 µM
Cn1cc(-n2cnc3c(NCc4nc5cc(Cl)c(Cl)cc5[nH]4)nc(N4CCOCC4)nc32)cn1,MDA-MB-231,"cell viability, CellCounting-Lite",,"2.743 nM, 37 °C",higher = more viable cells,luminescence signal,417000 a.u. and 421000 a.u. and 429000 a.u.
Cc1cccc(-c2[nH]c(CNc3ccccc3F)nc2-c2ccc3ncnn3c2)n1,MM1.S pomalidomide-resistant,XTT,,2 µM,reference: untreated,viability,41%
CC(C)(C)c1nc(-c2cccc(NS(=O)(=O)c3c(F)cccc3F)c2F)c(-c2ccnc(N)n2)s1,A2780/CP,annexin V/PI flow cytometry,,"concentration not given, 48 h",reference: untreated,late apoptotic cells,0.22%
C=CC(=O)c1cccnc1Nc1cc(C(F)(F)F)ccc1C,MCF7,firefly luciferase reporter,,"50 µM, 6 h",reference: vehicle,TEAD reporter activity,51.8 ± 1.8%
CC(=O)c1nn(-c2ccc(Cl)cc2)/c(=N/N=C(\C)c2ccc(NC(=O)c3ccc(Cl)cc3)cc2)s1,HepG2,,,0.312 µM,,viability,98.6%
Cc1c(C(=O)O)ccc2c3n(nc12)[C@@H]1[C@H](C3)N(CC2CC2)[C@@]2(C(=O)Nc3cc(Cl)ccc32)[C@H]1c1cccc(Cl)c1F,DK-MG,"cell growth, alamarBlue",,unbound,,GI50,0.00011 µM
Cn1cc(Nc2nccc(-c3ccc4c(c3)CN(C3COC3)CC[C@H]4NC(=O)c3cn(C(C)(C)C)nn3)n2)cn1,human B cells,,,"100 nM, 64 h, stimulation-downregulated genes, with: CD40L, anti-IgM, IL-21",,number of downregulated genes,5
